Measured values from different studies.
Several values in a cell are separate wells, animals, samples, runs or records. ± gives the spread as reported.

CCCn1cc(C)c2c(=O)[nH]c(-c3cc(S(=O)(=O)N4CCN(CC)CC4)ccc3OCC)nc21 — Cmax (human, plasma; oral, 100 mg, with: alcoholic beverage 0.5 g/kg): 117 ± 82.7 ng/mL
COc1cc(-c2cnc3cc(OCCN4CCOCC4)ccn23)cc2c1C(=O)N(CC(F)(F)F)CC2 — Cmax (LC-MS; human, plasma; oral, 350 mg, -2 h on day 9, with: sulfasalazine 1000 mg): 928 ng/mL
CN[C@@H](C)C(=O)N[C@H]1CN(S(=O)(=O)c2cccc(S(=O)(=O)N3CC[C@H]4CC[C@@H](C(=O)NC(c5ccccc5)c5ccccc5)N4C(=O)[C@@H](NC(=O)[C@H](C)NC)C3)c2)CC[C@H]2CC[C@@H](C(=O)NC(c3ccccc3)c3ccccc3)N2C1=O — Cmax (LC-MS/MS, noncompartmental; human, plasma; 30 mg, cycle 1 day 1): 1400 ± 513 ng/mL
CC[C@H](C)[C@@H]([C@@H](CC(=O)N1CCC[C@H]1[C@H](OC)[C@@H](C)C(=O)N[C@@H](Cc1ccccc1)C(=O)NCCCO)OC)N(C)C(=O)[C@@H](NC(=O)[C@H](C(C)C)N(C)C)C(C)C — Cmax (human patients, plasma; intravenous, 20 mg/m², cycle 1 geometric mean): 3.31 ng/mL
COc1cc(Nc2c(C#N)cnc3cc(OCCCN4CCN(C)CC4)c(OC)cc23)c(Cl)cc1Cl — Cmax (measured: total drug; human, severe hepatic impairment, plasma; single dose, NCI classification): 24.6 ng/mL
N[C@@H]1c2cccnc2[C@H](OC(=O)N2CCC(n3c(=O)[nH]c4ncccc43)CC2)CC[C@H]1c1cccc(F)c1F — Cmax (human, plasma; oral, dose not given, single dose, mean, with: fluconazole): 994 ng/mL
Cn1cncc1[C@@](N)(c1ccc(Cl)cc1)c1ccc2c(c1)c(-c1cccc(Cl)c1)cc(=O)n2C — Cmax (human, plasma; oral, dose not given, with: omeprazole): 90.5 ng/mL
CC1(COc2ccc3c(c2)ncn3-c2ccc3cccc(N4CCC(N)CC4)c3n2)COC1 — Cmax (human patients, recurrent/progressive HGG or DIPG, serum; oral, 170 mg/m^2, day 1, median): 634 nM
Nc1ccc(-c2nc([C@H]3CCc4cc(-c5cc(Cl)ccc5-n5cnnn5)cc(=O)n43)c(F)[nH]2)c(F)n1 — Cmax (human, plasma; oral, 250 mg once daily, day 1): 1770 ng/mL
NC1(C(=O)N[C@@H](CCO)c2ccc(Cl)cc2)CCN(c2nc[nH]c3nccc2-3)CC1 — Cmax (human, plasma; concentration not given): 349 ng/mL and 488 ng/mL and 872 ng/mL
CCCS(=O)(=O)N[C@H]1C[C@@H](N(C)c2ncnc3[nH]ccc23)C1 — Cmax (human, plasma, total; oral, 200 mg single dose): 756 ng/mL
CC(C)n1nc(-c2ccc3oc(N)nc3c2)c2c(N)ncnc21 — Cmax (human patients, plasma; oral, 3 mg once daily, cycle 1 day 1, dose expansion): 42.8 ng/mL
Cc1cc(-c2nccc3c2ccn3CC(=O)Nc2ccc(-c3cnccn3)cn2)ccn1 — Cmax (human, plasma; oral, 7 mg single dose): 57.4 nM
NC(CO)(CO)CCc1ccc(Sc2cccc(OCc3ccccc3)c2)cc1Cl — Cmax (human, fed, whole blood; oral, 3 mg, geometric mean, with: itraconazole 200 mg once daily): 1.22 ng/mL
CN(CC#N)C(=O)C[C@H](Nc1nc2ccccc2[nH]1)c1cccc(C(F)(F)F)c1 — Cmax (human; intravenous infusion, 1.5 mg/kg, 1 mg/mL formulation): 4480 ± 814 ng/mL
Cc1ncnc2c1ccn2[C@@H]1C[C@H](Oc2cc(C(F)F)c(F)c3c2CNCC3)[C@@H](O)[C@H]1O — Cmax (human; oral, 0.5 mg twice daily): 5.02 ng/mL
Cc1cc(Nc2cc3ncccc3c(N[C@@H]3C[C@H]4CC[C@@H](C3)N4CCC#N)n2)n[nH]1 — Cmax (human, plasma; 10 mg single dose, mean): 0.233 ng/mL
COc1ccc(F)cc1C(=O)NCc1ccc(-c2nn([C@@H](C)C(F)(F)F)c(N)c2C(N)=O)cc1 — Cmax (human, fasted, plasma; oral, 200 mg single dose, formal food-effect study): 4200 ng/mL
C[C@H](CCC(=O)NCC(=O)O)[C@H]1CC[C@H]2[C@@H]3CC[C@@H]4C[C@H](O)CC[C@]4(C)[C@H]3C[C@H](O)[C@]12C — Cmax (human, plasma; oral, dose not given; baseline: untreated): 840 ± 193 nM
CC1=C(c2cccc(O)c2)[C@H](c2ccc(OCCN3CC(CF)C3)cc2)Oc2ccc(O)cc21 — Cmax (human, plasma; oral, 1000 mg single dose, geometric mean): 129 ng/mL

A few entries again:
Cc1cc(Nc2cc3ncccc3c(N[C@@H]3C[C@H]4CC[C@@H](C3)N4CCC#N)n2)n[nH]1 — Cmax (human, plasma; 10 mg single dose, mean): 0.233 ng/mL
